Results pooled from the literature.
Protocols differ between the studies behind these lines. “And” joins repeats or separate records; there may be more than shown. ± gives the spread as reported.
SIRT2: NAD-dependent protein deacetylase sirtuin-2 (SIRT2, Homo sapiens, UniProt Q8IXJ6)
UniProt Q8IXJ6, sequence (whole entry, looked up): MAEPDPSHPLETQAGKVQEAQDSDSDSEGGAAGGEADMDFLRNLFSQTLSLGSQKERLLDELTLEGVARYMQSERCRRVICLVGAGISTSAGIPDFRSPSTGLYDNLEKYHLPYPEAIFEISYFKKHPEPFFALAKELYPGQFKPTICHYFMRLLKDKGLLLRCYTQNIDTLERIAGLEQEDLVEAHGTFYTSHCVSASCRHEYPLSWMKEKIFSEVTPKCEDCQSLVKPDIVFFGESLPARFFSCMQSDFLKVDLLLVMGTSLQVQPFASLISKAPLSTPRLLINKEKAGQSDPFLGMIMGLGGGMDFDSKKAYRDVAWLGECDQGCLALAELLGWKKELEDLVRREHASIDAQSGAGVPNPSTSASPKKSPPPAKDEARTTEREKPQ
Htr1b: 5-hydroxytryptamine receptor 1B (Htr1b, Rattus norvegicus, UniProt P28564)
UniProt P28564, sequence (whole entry, looked up): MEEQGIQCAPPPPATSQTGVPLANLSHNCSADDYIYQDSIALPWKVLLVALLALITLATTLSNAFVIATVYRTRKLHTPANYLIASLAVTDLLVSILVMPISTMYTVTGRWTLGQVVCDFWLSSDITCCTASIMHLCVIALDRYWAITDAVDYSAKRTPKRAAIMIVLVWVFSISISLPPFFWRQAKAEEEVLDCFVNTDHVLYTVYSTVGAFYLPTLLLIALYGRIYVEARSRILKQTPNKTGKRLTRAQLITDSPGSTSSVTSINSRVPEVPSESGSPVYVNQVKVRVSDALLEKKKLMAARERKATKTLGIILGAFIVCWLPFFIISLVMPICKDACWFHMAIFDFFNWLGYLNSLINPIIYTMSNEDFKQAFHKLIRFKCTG
JAK2: Tyrosine-protein kinase JAK2 (JAK2, Homo sapiens, UniProt O60674)
UniProt O60674, sequence (whole entry, looked up): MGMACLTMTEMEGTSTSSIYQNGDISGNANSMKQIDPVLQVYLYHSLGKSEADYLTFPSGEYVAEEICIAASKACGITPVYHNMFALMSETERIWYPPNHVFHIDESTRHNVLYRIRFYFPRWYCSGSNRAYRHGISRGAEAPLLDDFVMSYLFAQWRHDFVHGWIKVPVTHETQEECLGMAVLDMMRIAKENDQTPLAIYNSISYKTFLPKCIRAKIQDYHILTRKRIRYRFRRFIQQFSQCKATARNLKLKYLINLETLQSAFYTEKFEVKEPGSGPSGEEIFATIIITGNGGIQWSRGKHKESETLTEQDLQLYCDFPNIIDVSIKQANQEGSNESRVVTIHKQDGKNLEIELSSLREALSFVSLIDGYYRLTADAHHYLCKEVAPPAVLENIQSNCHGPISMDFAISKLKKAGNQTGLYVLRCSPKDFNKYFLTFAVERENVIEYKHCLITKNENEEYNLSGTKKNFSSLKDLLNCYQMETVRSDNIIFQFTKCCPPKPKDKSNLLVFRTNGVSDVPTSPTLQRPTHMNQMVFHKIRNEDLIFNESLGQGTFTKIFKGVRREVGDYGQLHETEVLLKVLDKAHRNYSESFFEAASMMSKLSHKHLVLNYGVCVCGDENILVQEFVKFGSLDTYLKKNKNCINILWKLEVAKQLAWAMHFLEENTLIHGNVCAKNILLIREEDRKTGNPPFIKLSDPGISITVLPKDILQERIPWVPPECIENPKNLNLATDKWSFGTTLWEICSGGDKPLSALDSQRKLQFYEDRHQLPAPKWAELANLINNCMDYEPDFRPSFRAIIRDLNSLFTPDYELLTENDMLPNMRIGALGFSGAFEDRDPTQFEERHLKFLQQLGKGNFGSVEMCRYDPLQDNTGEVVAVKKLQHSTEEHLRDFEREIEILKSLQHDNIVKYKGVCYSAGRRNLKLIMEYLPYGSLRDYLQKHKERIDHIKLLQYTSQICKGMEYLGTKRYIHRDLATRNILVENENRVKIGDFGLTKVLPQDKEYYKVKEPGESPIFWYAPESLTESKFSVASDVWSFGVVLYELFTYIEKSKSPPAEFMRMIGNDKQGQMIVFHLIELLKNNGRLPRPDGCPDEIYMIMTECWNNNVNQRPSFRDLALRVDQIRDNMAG
SRD5A1: 3-oxo-5-alpha-steroid 4-dehydrogenase 1 (SRD5A1, Homo sapiens, UniProt P18405)
UniProt P18405, sequence (whole entry, looked up): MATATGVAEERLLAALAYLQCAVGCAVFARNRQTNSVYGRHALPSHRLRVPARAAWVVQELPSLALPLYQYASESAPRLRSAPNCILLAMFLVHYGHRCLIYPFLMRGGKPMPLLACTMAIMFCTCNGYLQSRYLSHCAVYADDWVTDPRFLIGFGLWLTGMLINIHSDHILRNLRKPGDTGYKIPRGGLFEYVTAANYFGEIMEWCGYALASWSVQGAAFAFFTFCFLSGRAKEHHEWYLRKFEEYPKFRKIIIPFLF
RPS6KA2: Ribosomal protein S6 kinase alpha-2 (RPS6KA2, Homo sapiens, UniProt Q15349)
UniProt Q15349, sequence (whole entry, looked up): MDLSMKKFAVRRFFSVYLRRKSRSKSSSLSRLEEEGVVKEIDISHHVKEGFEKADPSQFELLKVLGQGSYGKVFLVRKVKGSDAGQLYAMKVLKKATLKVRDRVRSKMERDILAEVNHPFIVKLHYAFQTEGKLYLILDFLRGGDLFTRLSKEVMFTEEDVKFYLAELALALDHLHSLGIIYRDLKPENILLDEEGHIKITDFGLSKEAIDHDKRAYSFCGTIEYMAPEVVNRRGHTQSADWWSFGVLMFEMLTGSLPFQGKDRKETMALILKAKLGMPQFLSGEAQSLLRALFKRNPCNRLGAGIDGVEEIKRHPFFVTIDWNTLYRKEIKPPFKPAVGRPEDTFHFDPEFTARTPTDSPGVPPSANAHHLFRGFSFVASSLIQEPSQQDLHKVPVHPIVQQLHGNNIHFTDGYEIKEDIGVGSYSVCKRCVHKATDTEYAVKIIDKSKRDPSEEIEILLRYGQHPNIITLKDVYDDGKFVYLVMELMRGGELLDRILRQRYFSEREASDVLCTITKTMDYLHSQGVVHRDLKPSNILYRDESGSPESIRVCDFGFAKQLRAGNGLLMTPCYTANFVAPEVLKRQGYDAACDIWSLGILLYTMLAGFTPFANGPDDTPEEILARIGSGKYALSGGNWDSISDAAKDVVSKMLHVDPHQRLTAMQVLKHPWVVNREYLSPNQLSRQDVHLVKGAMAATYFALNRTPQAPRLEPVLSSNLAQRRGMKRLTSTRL
DRD5: D(1B) dopamine receptor (DRD5, Homo sapiens, UniProt P21918)
UniProt P21918, sequence (whole entry, looked up): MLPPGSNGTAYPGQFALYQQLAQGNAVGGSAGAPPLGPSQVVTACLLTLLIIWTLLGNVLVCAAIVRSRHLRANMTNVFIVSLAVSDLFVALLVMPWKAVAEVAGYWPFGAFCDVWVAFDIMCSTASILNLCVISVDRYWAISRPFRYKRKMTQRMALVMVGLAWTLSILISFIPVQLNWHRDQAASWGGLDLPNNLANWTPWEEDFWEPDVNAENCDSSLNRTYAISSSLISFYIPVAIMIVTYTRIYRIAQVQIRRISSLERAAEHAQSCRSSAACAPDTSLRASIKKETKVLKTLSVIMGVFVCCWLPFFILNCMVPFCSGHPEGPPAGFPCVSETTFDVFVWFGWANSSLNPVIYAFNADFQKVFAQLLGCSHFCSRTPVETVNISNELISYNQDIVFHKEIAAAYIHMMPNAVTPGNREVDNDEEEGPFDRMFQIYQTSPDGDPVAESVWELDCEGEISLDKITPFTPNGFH
AGER: Advanced glycosylation end product-specific receptor (AGER, Homo sapiens, UniProt Q15109)
UniProt Q15109, sequence (whole entry, looked up): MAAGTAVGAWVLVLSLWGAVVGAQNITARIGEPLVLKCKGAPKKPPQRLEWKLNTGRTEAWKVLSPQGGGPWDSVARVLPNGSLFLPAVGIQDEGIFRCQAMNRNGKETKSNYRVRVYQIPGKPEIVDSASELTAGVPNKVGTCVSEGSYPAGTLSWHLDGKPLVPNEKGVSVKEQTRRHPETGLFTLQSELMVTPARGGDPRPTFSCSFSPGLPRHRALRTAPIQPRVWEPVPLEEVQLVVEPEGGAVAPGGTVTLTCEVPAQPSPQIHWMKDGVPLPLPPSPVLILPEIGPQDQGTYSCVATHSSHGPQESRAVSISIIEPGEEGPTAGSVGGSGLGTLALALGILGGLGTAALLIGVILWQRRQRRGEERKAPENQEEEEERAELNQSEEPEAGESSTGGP
UniProt P08913, sequence (whole entry, looked up): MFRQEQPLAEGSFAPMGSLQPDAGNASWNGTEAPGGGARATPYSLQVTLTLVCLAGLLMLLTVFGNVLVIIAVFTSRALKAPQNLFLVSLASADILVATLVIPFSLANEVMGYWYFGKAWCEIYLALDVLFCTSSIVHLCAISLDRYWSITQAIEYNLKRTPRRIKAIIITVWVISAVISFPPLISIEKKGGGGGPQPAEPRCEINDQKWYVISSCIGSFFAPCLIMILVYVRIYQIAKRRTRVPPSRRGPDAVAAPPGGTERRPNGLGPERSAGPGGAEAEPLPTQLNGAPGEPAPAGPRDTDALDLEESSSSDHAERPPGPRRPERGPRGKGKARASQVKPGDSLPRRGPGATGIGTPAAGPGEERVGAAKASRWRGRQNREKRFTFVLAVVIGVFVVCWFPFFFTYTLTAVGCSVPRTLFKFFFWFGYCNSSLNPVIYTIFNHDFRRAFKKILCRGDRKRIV
UniProt P28907, sequence (whole entry, looked up): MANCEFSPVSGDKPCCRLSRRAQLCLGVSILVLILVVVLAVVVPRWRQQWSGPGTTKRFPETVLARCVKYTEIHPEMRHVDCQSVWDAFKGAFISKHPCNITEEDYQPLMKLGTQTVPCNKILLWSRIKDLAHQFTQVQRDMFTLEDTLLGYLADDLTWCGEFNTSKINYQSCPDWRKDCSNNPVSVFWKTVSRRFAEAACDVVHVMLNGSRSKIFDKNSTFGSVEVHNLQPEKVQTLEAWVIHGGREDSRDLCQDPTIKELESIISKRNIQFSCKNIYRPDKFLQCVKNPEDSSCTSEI
UniProt P49770, sequence (whole entry, looked up): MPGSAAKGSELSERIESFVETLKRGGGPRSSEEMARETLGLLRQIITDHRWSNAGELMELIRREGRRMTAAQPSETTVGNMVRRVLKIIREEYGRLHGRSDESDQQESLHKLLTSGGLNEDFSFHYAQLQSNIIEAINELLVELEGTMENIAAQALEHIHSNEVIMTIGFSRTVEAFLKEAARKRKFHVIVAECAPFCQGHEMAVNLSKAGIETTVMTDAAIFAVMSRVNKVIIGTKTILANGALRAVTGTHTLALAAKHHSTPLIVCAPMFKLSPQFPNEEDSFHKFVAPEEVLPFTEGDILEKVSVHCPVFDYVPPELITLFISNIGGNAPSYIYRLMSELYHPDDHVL

O=C(NC1CCC1)[C@H](Cc1c[nH]c2ccccc12)NC(=O)[C@H](CCCCNC(=S)NCCc1noc(=O)[nH]1)NS(=O)(=O)c1cccc(F)c1
inhibition (SIRT2; deacylase activity; 1 µM, together with: NAD+ 500 µM): < 0%

CCn1cc(C(=O)O)c(=O)c2c(N)c(F)c(NC3CCCCC3)cc21
inhibition (5'-AMP-activated protein kinase catalytic subunit alpha-2, with beta1 gamma2 (PRKAA2, Homo sapiens, UniProt P54646); kinase activity; 0.1 µM, together with: ATP at Km): 0.4%

C[Si](C)(C)C[C@H](CN)CC(=O)O
inhibition (Htr1b; ligand displacement, radioligand; 250 µM): -1%

COc1ncc2nc(C)n(Cc3ncc(S(N)(=O)=O)cc3F)c2c1-c1ccccc1
inhibition (HTR3A (Homo sapiens, UniProt P46098); antagonist, cell-based; 10 µM): 1.86%

Cc1cnc2nc1Nc1cc(F)cc(c1)COC/C=C/COCc1cc(ccc1OCCN1CCCC1)N2
inhibition (JAK2; inhibitor, Z'-LYTE kinase; 0.4572 nM): 7.42% and 5.59% and 12.4%

CC(=O)N(C)Cc1cccc(-c2cc3c(c(C(F)(F)F)c2)CCCC3N(C)C(=O)COC[C@@H]2CCNC[C@@H]2F)c1 (mixture of isomers)
inhibition (Translation initiation factor eIF2B subunit beta/Translation initiation factor eIF2B subunit delta (Homo sapiens, UniProt P49770+Q9UI10); ligand displacement, TR-FRET; 100 mM): 76%

O=C1c2sc(-c3ccc(N4CCC(CO)CC4)nc3F)nc2CCN1c1cccnc1
inhibition (MT3 (ML-2) receptor; radioligand binding; 1 µM, together with: agonist radioligand): -10%

COc1cc(/C=C/C(=O)O)ccc1O
inhibition (SRD5A1; enzyme activity in cells, inhibitor; HaCaT; 50 µM): 4.01%

C=CC(=O)Nc1cccc(-c2cnc3[nH]cc(C(=O)NC(C)(C)C)c3n2)c1
inhibition (RPS6KA2; enzyme activity, inhibitor; 0.1 µM): 39%

C=CC(=O)N1Cc2nc(-c3cc(-c4cc(Cl)cnc4Cl)c(F)cc3F)n(-c3ccncn3)c2C1
inhibition (5'-AMP-activated protein kinase catalytic subunit alpha-2, with beta1 gamma1 (PRKAA2, Homo sapiens, UniProt P54646); kinome panel; 1 µM): -0.7%

CC(C)Cn1c(SCC(=O)N2CCc3ccccc3C2)nc2cc(Cl)ccc2c1=O
inhibition (DRD5; ligand displacement, radioligand; 10 µM): -15%

O=C1c2sc(-c3ccc(N4CCC(F)C4)nc3F)nc2CCN1c1cccnc1 (stereo not shown)
inhibition (ADRA2A (Homo sapiens, UniProt P08913); ligand displacement, radioligand; 1 µM): 3%

Cc1cnc2nc1Nc1cccc(c1)COCc1cc(ccc1OCCN1CCOCC1)N2
inhibition (JAK2; inhibitor, Z'-LYTE kinase; 0.4572 nM): 20.5% and 8.47% and 21.7%

CC(=O)C12NC(C)(C)CC1(C)C(=O)C1=C2c2c(c3c4n2C(C)(C)CC2=C4C4(CC(C)(C)NC(C)(C4)C2=O)CC3(C)C)C(=O)C(C)(C)N1 (single isomer, unassigned; (-))
inhibition (TRPV1 (Homo sapiens, UniProt Q8NER1); ion current, inhibitor, patch clamp; HEK-293T; 50 µM): 13.3%

CN1CCN(Cc2ccc(-c3ccc(CO[C@H]4CCC[C@@H]4NC(=O)c4cc(-c5cnn(C)c5)cnc4N)cc3)cc2)CC1
inhibition (5'-AMP-activated protein kinase catalytic subunit alpha-2, with beta2 gamma3 (PRKAA2, Homo sapiens, UniProt P54646); SelectScreen kinase profiling; 0.1 µM): -2%

Cc1cccc(O[C@H]2CCC[C@@H](C(C)CNCc3ccncc3)C2)c1 (relative stereo)
inhibition (RPS6KA2; kinome profiling; 10 µM): -5%

C/C=C/C(=O)Nc1ccc2nc(NCCCCCN(C)C)nc(NCCCCCCN(C)C)c2c1
inhibition (PRMT5 (Homo sapiens, UniProt O14744); enzyme activity, inhibitor, radiometric; 10 µM): 3%

COc1cc(/C=C/C(=O)Oc2cc(C(F)(F)F)ccc2C(F)(F)F)ccc1O
inhibition (SRD5A1; enzyme activity in cells, inhibitor; HaCaT; 10 µM): 58.2%

Cc1ccc(NC(=O)/C(=C/c2ccc(Cl)cc2Cl)Sc2ccc(C)cc2)cc1
inhibition (AGER; AGE2-BSA binding, inhibitor, competitive ELISA; 100 µM, 60 min, together with: AGE2-BSA): 76%

CO[C@@H](C)c1c(NC(=O)Nc2cnc(-n3nccn3)c(C(F)(F)F)c2)cnc2sc(C)nc12
inhibition (Htr1b; ligand displacement, radioligand; 10 µM): 2%

COc1ccc(C[C@H](NC(=O)Cc2cccc(Oc3ccccc3)c2)C(=O)N[C@@H](Cc2c[nH]c3ccccc23)C(=O)NCc2ccc(C)cc2)cc1OC
inhibition (Cathepsin B (CTSB, Homo sapiens, UniProt P07858); enzyme activity, inhibitor; 100 µM): 1%

O=C(Nc1ccc(F)cc1)Nc1ccc(C2CC(c3ccc(Cl)cc3)=NN2C(=O)Nc2ccc(F)cc2)cc1 (stereo not shown)
inhibition (AGER; 100 µM): 32%

CCCCCCCCCCCCCC(=S)NCCCC[C@H](NC(=O)OCc1ccccc1)C(=O)Nc1ccccc1
inhibition (SIRT2; enzyme activity, inhibitor; 100 µM): < 5%

N#Cc1c(Nc2ccccc2C(F)(F)F)s[nH]c1=O
inhibition (CD38 (Homo sapiens, UniProt P28907); enzyme activity, inhibitor; 10 µM): 0%

COc1ccc(S(=O)(=O)N2CCc3ccccc3C2)cc1N1CCN(C(=O)c2ccc(F)cc2C(F)(F)F)CC1
inhibition (Maoa (Rattus norvegicus, UniProt P21396); ligand displacement, radioligand; 1 µM): 11.3%

N=C(N)NCCCC(NC(=O)C(CC(=O)NO)Cc1ccc2ccccc2c1)C(=O)NC(Cc1c[nH]c2ccccc12)C(=O)NC(CCC(=O)O)C(N)=O (stereo not shown)
inhibition (MMP14 (Homo sapiens, UniProt P50281); 1 µM): 16%

Cc1ccc(N(O)/N=N/c2ccc(S(=O)(=O)Nc3nccs3)cc2)cc1
inhibition (α-glucosidase, rat intestine; enzyme activity; 20 µg/mL, together with: 4-nitrophenyl α-D-glucopyranoside): 7.5 ± 0.09%

O=C(O)Cc1ccccc1CC(=O)O
inhibition (Signal transducer and activator of transcription 5A, SH2 (Homo sapiens, UniProt P42229); ligand displacement, FP; 100 µM): -3%

Cn1ccc2cc(-n3c(=O)[nH]c4sc5c(c4c3=O)CCCC5)ccc21
inhibition (ADRA1B (Homo sapiens, UniProt P35368); cell-free assay, radioligand; 10 µM): 14%

O=C(Nc1ccc(Cl)cc1)Nc1ccc(C2=NNC(c3ccc(Cl)cc3)C2)cc1 (stereo not shown)
inhibition (AGER; 100 µM): 41%

Cc1cnc2nc1Nc1cccc(c1)COCCCCOCc1cc(ccc1OCCN1CCCC1)N2
inhibition (JAK2; inhibitor, Z'-LYTE kinase; 41.15 nM): 3.37% and 8.98% and 8.95%

O=C(CN1CCO[C@@H](COc2cccc(Cl)c2)C1)N1CCc2ccccc21
inhibition (DRD5; radioligand binding; concentration not given, together with: [3H]SCH23390): 7.1%

O=C(Nc1ccc(Cl)cc1)Nc1ccc(C2CC(c3ccc(Cl)cc3)=CC(=O)C2C(=O)O)cc1 (stereo not shown)
inhibition (AGER; 100 µM): 55%

CN(C)C/C=C/C(=O)Nc1ccc2nc(NCCCCCN(C)C)nc(NCCCCCCN(C)C)c2c1
inhibition (DNA (cytosine-5)-methyltransferase 3B, with DNMT3L (DNMT3B, Homo sapiens, UniProt Q9UBC3); enzyme activity; 10 µM): -30%

Some of these lines once more:
CO[C@@H](C)c1c(NC(=O)Nc2cnc(-n3nccn3)c(C(F)(F)F)c2)cnc2sc(C)nc12
inhibition (Htr1b; ligand displacement, radioligand; 10 µM): 2%

Cc1ccc(N(O)/N=N/c2ccc(S(=O)(=O)Nc3nccs3)cc2)cc1
inhibition (α-glucosidase, rat intestine; enzyme activity; 20 µg/mL, together with: 4-nitrophenyl α-D-glucopyranoside): 7.5 ± 0.09%

COc1ccc(C[C@H](NC(=O)Cc2cccc(Oc3ccccc3)c2)C(=O)N[C@@H](Cc2c[nH]c3ccccc23)C(=O)NCc2ccc(C)cc2)cc1OC
inhibition (Cathepsin B (CTSB, Homo sapiens, UniProt P07858); enzyme activity, inhibitor; 100 µM): 1%
